Assay results collected from several papers.
A part holds a random share of what one study measured. Positions count from the first letter of the parent shown.

Block 1
Target: Ras GTPase-activating protein-binding protein 1, full length (G3BP1, Homo sapiens, UniProt Q13283)
UniProt Q13283, sequence (whole entry, looked up): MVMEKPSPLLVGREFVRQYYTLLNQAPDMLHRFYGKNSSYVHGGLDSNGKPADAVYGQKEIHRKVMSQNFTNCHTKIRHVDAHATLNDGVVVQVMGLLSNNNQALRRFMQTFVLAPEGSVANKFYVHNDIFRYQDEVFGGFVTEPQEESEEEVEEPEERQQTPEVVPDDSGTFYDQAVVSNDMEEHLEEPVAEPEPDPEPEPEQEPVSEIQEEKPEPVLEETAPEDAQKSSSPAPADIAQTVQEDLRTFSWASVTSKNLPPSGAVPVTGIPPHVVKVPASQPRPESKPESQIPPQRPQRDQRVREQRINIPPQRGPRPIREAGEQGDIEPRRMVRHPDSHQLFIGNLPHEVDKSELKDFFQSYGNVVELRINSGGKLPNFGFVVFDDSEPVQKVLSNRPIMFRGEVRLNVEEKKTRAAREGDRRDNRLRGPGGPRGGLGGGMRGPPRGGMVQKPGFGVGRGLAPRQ
Method: RNA Bind-n-Seq
Form: RNA
Sample: in vitro
Tested at: 200 nM
Notes: whole 134-nt RNA, ends assumed
Added: 150 mM LiCl
Reference: input library
Reading: higher = stronger binding
Each molecule: 7-deaza-guanosine replaces G
All sequences stand within: GGGAGUUCUACAGUCCGACGAUC … UGGAAUUCUCGGGUGUCAAGG
| Sequence | log2 enrichment |
| --- | --- |
| CACAGACAACACGCACCCACACAGACACAGAGGGAAGGGGUUUGGAUGGGGACAGGGUGCACAGCAGGGCGGGGUAGGACCCCAGCCCCU | -1.41 |
| UGGACUUGCGGGUUCCCAUCUGGGACCAGGACAUACAGUUUCUCCCAGGAUCACAGAAGCUUGUCACCUGCACAGGGUACCACCAGGUAA | -0.417 |
| UCCUGUGCUACACAUCGUAUGUACCGAAUCGGGUUUUUUUGGGAAAAAGGGAAAAAGGGAAAGUAUUAUGUUACGCCGUUCGGAUCUGCA | -1.27 |
| UCCUGUGCUACACAUCGUAUGUACCGAAUCGGGGAAAAAAGGAAAAAAGGGAAAAAAGGGAAAGUAUUAUGUUACGCCGUUCGGAUCUGC | 0.221 |
| UCCUGUGCUACACAUCGUAUGUACCGAAUCGGGGAAAAAGGGGAAAAAGGGAAAAAGGGGAAAGUAUUAUGUUACGCCGUUCGGAUCUGC | -0.106 |
| AGUCCUGUGCUACACAUCGUAUGUACCGAAUCGGGGCCCCGGGCCCCGGGCCCCGGGGAAAGUAUUAUGUUACGCCGUUCGGAUCUGCAC | -1.87 |
| GCAGGAAGUAAAAACAAAUGGAAAUGCUUCGGAUAGUGGGAGGGGUGGGGGUUGCUAAGGAAAGGGUGGGAUGGGAGUGGGUAAAGAGUU | -0.288 |
| UUCCGCGACUACCGGCGUGUGCACAAGCCGCCCAAGGUGCAGGAGAAGUGCCAGCUGGAGAUCAACUUCAACACGCUGCAGACCAAGCUG | -2.08 |
| GUCCUGUGCUACACAUCGUAUGUACCGAAUCGGGGUUUUUGGGGUUUUUGGGGUGGGGAAAGUAUUAUGUUACGCCGUUCGGAUCUGCAC | -0.407 |
| UUUCUCCAUUGCAGGAAGUUGGCAGUAUCAUCGGAAAGGUAAGACAAUUUCACUUCAACUUCAAUUACCAUUUAGUAAUUCUGGAUUGAA | -0.997 |
| AAGUCCUGUGCUACACAUCGUAUGUACCGAAUCGGUUUGGAAAAAAAGGUUUUUGGAAAGUAUUAUGUUACGCCGUUCGGAUCUGCACUU | -2.51 |

Block 2
Target: Prothrombin, mature alpha-thrombin (F2, Homo sapiens, UniProt P00734)
Method: aptamer microarray, sandwich
Form: DNA with 2'F-ANA
Sample: in vitro
Tested at: 200 nM
Notes: whole 15-mer aptamer, many near background
Added: Cy3 exosite-II aptamer, 400 nM
Reading: higher = stronger binding
Sequence: GGTTGGTGTGGTTGG
| Modification | mean fluorescence intensity |
| --- | --- |
| 2'F-ANA at 1 4 5 7 8 10 11 13 14 15 | 49.3 a.u. |
| 2'F-ANA at 2 4 5 8 9 10 11 13 | 53 a.u. |
| 2'F-ANA at 1 2 3 4 9 10 11 14 15 | 50.1 a.u. |
| 2'F-ANA at 3 5 8 9 10 14 15 | 50.4 a.u. |
| 2'F-ANA at 2 3 4 5 6 7 8 9 10 12 14 | 49.2 a.u. |
| 2'F-ANA at 2 6 8 9 13 14 | 110 a.u. |
| 2'F-ANA at 1 2 5 8 9 11 14 | 59 a.u. |
| 2'F-ANA at 3 5 6 8 14 15 | 87.3 a.u. |
| 2'F-ANA at 1 5 7 9 12 13 15 | 69.6 a.u. |
| 2'F-ANA at 2 4 6 7 8 9 13 15 | 189 a.u. |
| 2'F-ANA at 1 2 3 5 6 10 12 13 15 | 182 a.u. |
| 2'F-ANA at 1 3 4 5 11 12 13 14 15 | 48.8 a.u. |
| 2'F-ANA at 2 4 6 7 9 10 11 | 78.5 a.u. |
| 2'F-ANA at 3 4 5 8 9 10 11 13 | 56.2 a.u. |
| 2'F-ANA at 3 6 7 9 11 12 13 14 15 | 530 a.u. |
| 2'F-ANA at 2 4 6 8 9 11 12 13 14 15 | 79.7 a.u. |
| 2'F-ANA at 2 3 6 7 8 | 835 a.u. |
| 2'F-ANA at 1 3 4 6 9 11 13 14 | 54.6 a.u. |
| 2'F-ANA at 4 5 6 9 13 14 15 | 46.8 a.u. |
| 2'F-ANA at 1 2 4 8 10 12 13 15 | 58.6 a.u. |
| 2'F-ANA at 2 5 6 10 13 14 15 | 57.7 a.u. |
| 2'F-ANA at 1 2 3 4 5 13 14 | 49.6 a.u. |

Block 3
Target: RNA binding protein fox-1 homolog 2, RRM domain, GST-SBP tag (RBFOX2, Homo sapiens, UniProt O43251-10, residues 100-194)
Method: RNA Bind-n-Seq
Form: RNA
Sample: in vitro
Tested at: 365 nM
Notes: natural RNA segment, single round, ends assumed
Reference: no-protein control
Reading: higher = stronger binding
All sequences stand within: GGGAGUUCUACAGUCCGACGAUC … UGGAAUUCUCGGGUGCCAA
Target sequence (chain): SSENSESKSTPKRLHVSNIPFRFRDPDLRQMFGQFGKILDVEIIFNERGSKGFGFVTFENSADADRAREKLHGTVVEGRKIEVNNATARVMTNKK
| Sequence | RBNS enrichment (R) |
| --- | --- |
| UCUUAAGAGUCCCUGCAUGUAAAUCUCAAAGCUGAGCCUGGCUCCCAGAGUCCAGACUGACAUUACAGCGCAAGAGUUUGCAAGUGUGUCCAGCAUGCACCAACUGUGCA | 4 |
| AUGGGUCCAAAGCUCAGUACUGGGGAGCCUGGGGUCCCCACUUGAAUGUGCAGCAGGAGGUCCUUUUCCUUCUCUACCUUCCUCUUCUCCCUUUCCCUGGGGCCAGAUCA | 0.33 |
| AGCGGUUUAUUAAGCUCUUCUAUAUUAAACACUAAUAGAUAUUCAAUAACGGAGUAAACUGUUCCAGAUAAAGCAAGAAUAGUUGCAAGAAGUAAAUUCUGGCACAAAGC | 0.449 |
| UAUGUUUCCCCCCUUUUCCGAUAGAACUAUUGGGGUGAGGAUAAGGGUGGGGGGAAAUCACUGUUUGUUUUUAAAAGCAAAUCUUUUGUAAACAGAAUAAAAGUUCCUCU | 0.479 |
| CCCCUCCCCCAGCCCCCAGAAACUCAGUUCAGCUCUCAGAGAAGCAGGUGAAUCAUAAAGUCAGUGAAGACGCCGCCCUCUGAUUCUCCCCACUGUAGGGGGAAGGAAGG | 0.52 |
| AGCAAGAGUUGAGGUGAAGCAACUAAAGCACCGUAUAAGCCAGCAAGGCGCACAGAGCUGCUCCUGCCUAUGUGAUCUUUAAGUAGACCAGGAGCCAGGAAACCACUUUA | 0.875 |
| GUGAGGGAGGCCAGGUAGCCGAGGGAUCAGGAUGCAGGCUGCUGUACCCGCUCUGCCUCAAGCAUCCCCCACACAGGGCUCUGGUUUUCACUCGCUUCGUCCUAGAUAGU | 0.274 |
| CAGGCUUGACUUCCUAUGGUGUUAUUCUGGAACAUGCUGCCACGAGUCCCGGCUUUUGGAGUCCCAGCACACUUGAACUUGGAUUUGCCAUUCAGUAUUAAUAGAUCAUG | 0.327 |
| CGUCGUGAGUGUCAAAUGUGUCCCACUCCUCCCUAGAAGUUAUGAACACUACACACAGUCAAUAAAGCGAAUGGACCUUGCUGAGUCUGCUGGCCCAGCCCCUGAACCCA | 0.314 |
| AACACAUAUAUUUUAAAGUAUAACAUAUUUAUUAUAAUUUAUUUGCACCUUGGGAAGACUUGCUUUGCAUUCUGCCUCAAGAGCUUCUCAUUGAUGUCCAUCUGGAGGCC | 0.417 |
| CCCCCGCUCCAUAGUUUACAAUGCAAAUCUGUCUCAAGAUCUUCACUUCGCUGCUGCUGAGAGCAGGAGAAUUUUCUGCAGCUGUUUCAAAGUUGUGGCCUGGCCUUGAA | 0.602 |
| UGGUUUUGGAUGGAGUUAAACUUGAUGCCAGUGGGCAGUGCAUGUGGAAAGUAUCAGAGUAAGGCUCUCCCCUCCAGAGCCCUGAGUUUCUUGGCUGCAUGAAGGUUUUC | 12.2 |

Block 4
Target: ABI1, truncated, D143A, DHFR fusion (Arabidopsis thaliana)
Method: DHFR PCA, deep sequencing
Sample: yeast
Notes: methotrexate growth selection, single substitutions
Added: (+)-ABA 0.11 µM
Reference: wild-type fitted maximum
Reading: higher = stronger binding
Starting sequence: PYL1, truncated, DHFR fusion (Arabidopsis thaliana); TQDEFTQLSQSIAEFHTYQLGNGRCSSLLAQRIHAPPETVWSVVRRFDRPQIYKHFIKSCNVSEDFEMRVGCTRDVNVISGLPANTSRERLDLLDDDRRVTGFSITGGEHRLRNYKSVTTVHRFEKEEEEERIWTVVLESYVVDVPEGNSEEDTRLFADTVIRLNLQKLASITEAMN; partner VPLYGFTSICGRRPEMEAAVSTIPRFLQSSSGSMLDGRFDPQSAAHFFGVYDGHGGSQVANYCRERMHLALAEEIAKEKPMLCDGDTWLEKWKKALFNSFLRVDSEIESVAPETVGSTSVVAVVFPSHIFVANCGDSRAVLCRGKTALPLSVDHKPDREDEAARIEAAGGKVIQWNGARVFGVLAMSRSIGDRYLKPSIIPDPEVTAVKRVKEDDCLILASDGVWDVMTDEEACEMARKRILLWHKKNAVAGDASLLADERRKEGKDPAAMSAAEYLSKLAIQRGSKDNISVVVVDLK
| Substitution | relative binding score [%] |
| --- | --- |
| R113A | 13.5 |
| R45L | -0.733 |
| V78H | 55.2 |
| K168P | 1.82 |
| E64N | 29.2 |
| I12H | 3.11 |
| Y141G | -3.22 |
| E64K | 51.1 |
| D159K | -8.3 |
| E109N | 52.4 |
| S80Q | 1.42 |
| R132E | 59.6 |
| Q2V | 62 |
| H55I | 39 |
| P37I | -0.407 |
| I52D | 44.6 |
| I52C | 15.7 |

A few entries again (block 2):
| Modification | mean fluorescence intensity |
| --- | --- |
| 2'F-ANA at 2 3 6 7 8 | 835 a.u. |
| 2'F-ANA at 1 5 7 9 12 13 15 | 69.6 a.u. |
| 2'F-ANA at 1 2 5 8 9 11 14 | 59 a.u. |
